Assay results of several laboratories.
Parts stem from different laboratories: compare values within a part only. Substitutions count along the parent as printed.

Sample 1
Target: ABI1, truncated, D143A, DHFR fusion (Arabidopsis thaliana, UniProt P49597)
Method: DHFR PCA, dose-response
Matrix: yeast
Notes: Hill fit, mean, not affinity
With: (+)-ABA, dose series
Reading: lower = more sensitive
Starting sequence: PYL1, truncated, DHFR fusion (Arabidopsis thaliana, UniProt Q8VZS8); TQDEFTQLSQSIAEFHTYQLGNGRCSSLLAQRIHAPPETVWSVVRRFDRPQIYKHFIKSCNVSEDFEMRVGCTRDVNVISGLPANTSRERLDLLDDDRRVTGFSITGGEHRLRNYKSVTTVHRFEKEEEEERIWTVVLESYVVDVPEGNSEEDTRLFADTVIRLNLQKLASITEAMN
Change | ABA EC50 [µM]
T106Y | 2.76
F103I | 134
I52Q | 2.48
R88A | 6.87
C25R | 385
E152Y | 3.72
T1L | 1.96
G81V | 334
S59M | 21.7
F56C | 34.7
F66G | 2.11
Q2D | 0.954
F124W | 1.22
D75G | 23.5
G81Q | 244
A30V | 1.61
E38R | 44.5
F66V | 7.51
N22L | 3.12
L164N | 7.62
F66K | 6.38
S87G | 503
T39R | 1.97
E89D | 156

Sample 2
Target: RNA binding protein fox-1 homolog 2, RRM domain, GST-SBP tag (RBFOX2, Homo sapiens, UniProt O43251-10, residues 100-194)
Method: RNA Bind-n-Seq
Form: RNA
Matrix: in vitro
Tested at: 365 nM
Notes: natural RNA segment, single round, ends assumed
Baseline: no-protein control
Reading: higher = stronger binding
Target sequence (chain): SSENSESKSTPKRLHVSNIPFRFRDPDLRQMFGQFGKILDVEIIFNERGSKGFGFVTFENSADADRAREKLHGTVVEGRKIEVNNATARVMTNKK
Strand | RBNS enrichment (R)
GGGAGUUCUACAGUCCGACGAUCACCCCAGGCAGGCCCUGUGUACCCCUCCUCUAUACUCCAGCAUUUAAUCUUGUGGCUGCUUUCUUUUUAUUUCCCACUUUCUCUGUUUUAUAACAGAACCUUCUGUAUAGUGGAAUUCUCGGGUGCCAA | 1.49
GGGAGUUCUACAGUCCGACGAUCUGUUCACUUUUGUAAUAUUGUCCUGGGCCUGUGUUGGGGUGUUGGGGGAAGCUGGGCAUCAGUGGCCACAUGGGCAUCAGGGGCUGGCCCCACAGAGACCCCACAGGGCAUGGAAUUCUCGGGUGCCAA | 0.487
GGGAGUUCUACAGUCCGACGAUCGGGAGUGUCAGGCCUGGAGUCCACAGCCUCACCUGCUGCUGUAGCUGUCAGCUGGACCUGGUGGCUUGUGGUUGAUGGUCACUAUUAGUGGGUGAGUGGGGAUGACCUGGUGGAAUUCUCGGGUGCCAA | 0.915
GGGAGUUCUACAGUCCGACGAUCUUCCUAGAGUUGCACCCUAGCAACCUAGCCAGAAAAGCAAGUGGCAAGAGGAUUAUGGCUAACAAGAAUAAAUACAUGGGAAGAGUGCUCCCCAUUGAUUGAAGAGUCACUGGAAUUCUCGGGUGCCAA | 0.307
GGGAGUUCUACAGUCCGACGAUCAAAAACUAAUUGUGAUUUCUAGUCUUGCAAAGCUGUAUGUAGUUAGAUGAUGUGACAACCUCUAAUAUUUAUCUAAUAAAUAUGUAUUCAGAUGAAACCUGUAUAUUAGGUGGAAUUCUCGGGUGCCAA | 0.817
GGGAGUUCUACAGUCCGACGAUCCCAGGCACUGUUUCUCUGAGUUUUGUUGUUUUGUUUUCUUUGAAGGCUACUGAGCCCAAGCUUCCCGCAUUCCCUUAGUAACAAGAGACAGGACAGAGAGAAGGUCUACUUGGAAUUCUCGGGUGCCAA | 0.531
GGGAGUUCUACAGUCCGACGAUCAUUUUAAAAUUUAUAAACAAGUCACUUAAAUGCCAGUUGUCUGAAAAAUCUUAUAAGGUUUUACCCUUGAUACGGAAUUUACACAGGUAGGGAGUGUUUAGUGGACAAUAUGGAAUUCUCGGGUGCCAA | 0.566
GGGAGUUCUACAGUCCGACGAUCUUUACUGAAAAAGCUAUUGGACUCUUGCUCUUUCUAGCUCUGAACUAAUAAAUGUCUUAUCACGCUGGCCAGAGAGUAGCUGUCUUUCAGCAAACACUGAGCACACUGUGUGGAAUUCUCGGGUGCCAA | 0.361
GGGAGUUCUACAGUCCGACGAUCUAUUAGAAUGUGUAAAUGAAGCUUGCUUGGAAGGGGAAAACUUUAAAUAAAAACUUUAUGUACUAAUCAACUGUCUCUCAUAUCCUACUUACAUAUGUAUAAAUCUCUACUGGAAUUCUCGGGUGCCAA | 0.98
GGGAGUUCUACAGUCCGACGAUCCUGCUAUUAUUCCUUGCUGUUUAUAGUGCUUUUGUGUAGUAAAUGCUCACUCCCCAAGCUUUAUGGAGCUUCCAGCAACAGCCAUGAACUUGAGGUUCCUUGAAUUUGCGUGGAAUUCUCGGGUGCCAA | 0.668
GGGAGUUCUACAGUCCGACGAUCUACAAGGACCCAGCCUGAGAUGGUCCCAUCUGCAGGGCCCCGCACCAGUUGGAGCAGAUGCCUCCCCACCACCAAUUGCCAAAGGUCCAAUAAAAUGCCUCAACCACGGAUGGAAUUCUCGGGUGCCAA | 0.626
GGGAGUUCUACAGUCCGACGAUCCUGCAAAAAAAAAAAAAAAAAAAAAAAAAAAAAAAUCAAAUAAGCCACAAAGCUAAAAGACUGCGCCCCAUUCUGAAGAAGGCACAAGUACAUGGGAGAGUCCUGCCUUAUGGAAUUCUCGGGUGCCAA | 1.32

Sample 3
Target: ATF3, bZIP domain (human)
Method: DHFR protein complementation
Matrix: yeast
Notes: single substitutions, most at no-binding floor
Baseline: wild-type JUN-FOS pair
Reading: higher = stronger binding
Starting sequence: JUN, bZIP domain (human); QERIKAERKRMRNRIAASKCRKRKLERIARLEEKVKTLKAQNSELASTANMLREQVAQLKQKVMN; partner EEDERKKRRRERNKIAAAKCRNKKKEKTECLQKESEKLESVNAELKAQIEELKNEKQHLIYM
Change | binding fitness [natural log]
E44S | -0.233
L38A | -0.672
A57R | -0.171
A49D | -1.33
T48Y | -0.0653
R53I | -0.348
K36W | -0.366
E33G | -0.348
T37H | 0.0316
V56G | -1.25
L38W | -0.95

Sample 4
Target: CCND3, cyclin fold, Cln2 fusion (human)
Method: yeast growth competition, sequencing
Matrix: yeast
Notes: weak parent motif
Baseline: not given
Reading: higher = stronger binding
Starting sequence: REPIN1 docking peptide (human); QSFRGWVALVLHL
Change | normalised enrichment score
QSFRGWVALVLHA [L13A] | -0.161
QSFRGWAALVLHL [V7A] | 0.515
QSFRGAVALVLHL [W6A] | -0.356
QSFRGWVAAVLHL [L9A] | -0.417
ASFRGWVALVLHL [Q1A] | -0.388
QSFRGWVALALHL [V10A] | -0.571

A few entries again (sample 3):
Change | binding fitness [natural log]
R53I | -0.348
K36W | -0.366
E33G | -0.348
